Results gathered from unrelated publications.
Each line is one published result; not all experiments were run side by side. Values joined by “and” are separate records of one study, mostly repeats; a detail may differ. ± marks the error that the study gave.
UniProt P42575, sequence (whole entry, looked up): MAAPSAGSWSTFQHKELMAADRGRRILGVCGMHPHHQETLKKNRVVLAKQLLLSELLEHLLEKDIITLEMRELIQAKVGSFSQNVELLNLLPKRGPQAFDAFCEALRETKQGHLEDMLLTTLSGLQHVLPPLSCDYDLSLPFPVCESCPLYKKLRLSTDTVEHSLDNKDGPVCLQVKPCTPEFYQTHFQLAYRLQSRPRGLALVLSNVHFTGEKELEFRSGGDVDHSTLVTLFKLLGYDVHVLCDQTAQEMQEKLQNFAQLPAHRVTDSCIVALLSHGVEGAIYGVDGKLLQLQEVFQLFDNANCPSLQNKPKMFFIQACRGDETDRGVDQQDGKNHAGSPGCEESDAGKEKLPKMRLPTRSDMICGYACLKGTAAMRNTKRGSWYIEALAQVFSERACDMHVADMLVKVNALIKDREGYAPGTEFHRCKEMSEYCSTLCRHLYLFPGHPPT
UniProt P00942, sequence (whole entry, unmodified, looked up): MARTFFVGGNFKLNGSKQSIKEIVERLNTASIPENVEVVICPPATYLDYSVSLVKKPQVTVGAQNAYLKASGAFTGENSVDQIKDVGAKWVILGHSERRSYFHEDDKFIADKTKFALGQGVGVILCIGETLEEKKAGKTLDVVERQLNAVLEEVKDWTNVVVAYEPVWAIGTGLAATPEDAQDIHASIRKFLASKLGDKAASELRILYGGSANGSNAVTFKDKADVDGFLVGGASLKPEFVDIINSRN
UniProt P02716, sequence (whole entry, looked up): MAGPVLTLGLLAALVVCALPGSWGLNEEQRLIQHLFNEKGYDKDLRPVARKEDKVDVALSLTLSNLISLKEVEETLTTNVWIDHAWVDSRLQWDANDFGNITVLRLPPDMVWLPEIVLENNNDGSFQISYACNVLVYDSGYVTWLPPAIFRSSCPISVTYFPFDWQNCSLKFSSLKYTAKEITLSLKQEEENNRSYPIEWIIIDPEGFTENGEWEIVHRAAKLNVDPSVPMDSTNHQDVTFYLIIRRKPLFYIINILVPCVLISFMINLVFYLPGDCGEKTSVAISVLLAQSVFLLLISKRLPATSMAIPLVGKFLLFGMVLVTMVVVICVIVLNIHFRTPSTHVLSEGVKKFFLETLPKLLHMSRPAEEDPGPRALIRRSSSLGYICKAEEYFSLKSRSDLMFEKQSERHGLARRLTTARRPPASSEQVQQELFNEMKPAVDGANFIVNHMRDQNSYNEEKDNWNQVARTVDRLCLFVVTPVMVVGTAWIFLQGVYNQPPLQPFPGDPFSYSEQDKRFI
UniProt P09936, sequence (whole entry, looked up): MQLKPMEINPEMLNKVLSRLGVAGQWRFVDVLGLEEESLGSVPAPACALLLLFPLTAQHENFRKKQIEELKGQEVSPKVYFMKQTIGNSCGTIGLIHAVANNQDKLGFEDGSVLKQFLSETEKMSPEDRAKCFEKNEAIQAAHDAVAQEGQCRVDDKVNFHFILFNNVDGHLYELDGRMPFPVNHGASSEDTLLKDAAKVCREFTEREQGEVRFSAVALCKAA
UniProt P20782, sequence (whole entry, looked up): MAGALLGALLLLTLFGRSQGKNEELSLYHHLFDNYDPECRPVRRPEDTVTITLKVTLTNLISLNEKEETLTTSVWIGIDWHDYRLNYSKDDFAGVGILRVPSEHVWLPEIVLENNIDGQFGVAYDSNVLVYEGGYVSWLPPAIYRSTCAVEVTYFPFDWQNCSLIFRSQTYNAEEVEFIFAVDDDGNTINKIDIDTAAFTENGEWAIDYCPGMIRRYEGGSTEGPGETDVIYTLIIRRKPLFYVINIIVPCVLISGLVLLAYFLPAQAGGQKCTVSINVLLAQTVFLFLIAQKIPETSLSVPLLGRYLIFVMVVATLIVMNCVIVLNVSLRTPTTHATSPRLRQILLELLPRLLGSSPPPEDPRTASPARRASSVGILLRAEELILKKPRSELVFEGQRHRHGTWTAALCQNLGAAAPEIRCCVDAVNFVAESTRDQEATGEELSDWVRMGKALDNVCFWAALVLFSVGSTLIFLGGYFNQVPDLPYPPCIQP
UniProt Q6NV75, sequence (whole entry, looked up): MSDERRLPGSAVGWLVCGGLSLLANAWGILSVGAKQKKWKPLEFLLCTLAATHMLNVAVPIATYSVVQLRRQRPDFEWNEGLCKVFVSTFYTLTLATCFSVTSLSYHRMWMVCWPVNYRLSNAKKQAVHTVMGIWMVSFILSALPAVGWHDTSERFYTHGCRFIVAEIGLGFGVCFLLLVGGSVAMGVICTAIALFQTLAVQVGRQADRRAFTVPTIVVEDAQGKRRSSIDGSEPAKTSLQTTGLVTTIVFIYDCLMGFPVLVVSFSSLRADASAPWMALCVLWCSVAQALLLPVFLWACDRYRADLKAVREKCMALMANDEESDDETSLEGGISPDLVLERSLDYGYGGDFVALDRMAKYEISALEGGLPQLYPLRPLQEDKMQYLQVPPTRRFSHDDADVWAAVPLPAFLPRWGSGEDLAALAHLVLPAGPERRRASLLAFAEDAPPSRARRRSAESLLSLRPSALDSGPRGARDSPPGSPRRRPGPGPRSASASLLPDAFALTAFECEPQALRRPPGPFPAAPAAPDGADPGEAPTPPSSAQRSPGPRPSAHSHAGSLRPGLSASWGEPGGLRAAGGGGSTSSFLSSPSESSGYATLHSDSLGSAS
UniProt P04756, sequence (whole entry, looked up): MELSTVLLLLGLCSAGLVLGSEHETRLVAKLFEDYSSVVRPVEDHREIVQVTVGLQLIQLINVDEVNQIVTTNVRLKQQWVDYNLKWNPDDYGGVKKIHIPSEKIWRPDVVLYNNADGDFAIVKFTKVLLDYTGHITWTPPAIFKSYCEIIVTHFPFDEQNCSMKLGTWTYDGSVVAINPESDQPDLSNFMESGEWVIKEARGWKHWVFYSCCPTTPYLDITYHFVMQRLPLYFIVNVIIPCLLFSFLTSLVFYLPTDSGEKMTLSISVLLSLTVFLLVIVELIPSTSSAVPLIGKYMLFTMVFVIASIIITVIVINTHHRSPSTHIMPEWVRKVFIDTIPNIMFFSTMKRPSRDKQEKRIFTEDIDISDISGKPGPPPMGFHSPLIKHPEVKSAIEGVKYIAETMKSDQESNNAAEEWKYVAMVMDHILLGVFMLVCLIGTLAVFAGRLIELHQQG
UniProt P97612, sequence (whole entry, looked up): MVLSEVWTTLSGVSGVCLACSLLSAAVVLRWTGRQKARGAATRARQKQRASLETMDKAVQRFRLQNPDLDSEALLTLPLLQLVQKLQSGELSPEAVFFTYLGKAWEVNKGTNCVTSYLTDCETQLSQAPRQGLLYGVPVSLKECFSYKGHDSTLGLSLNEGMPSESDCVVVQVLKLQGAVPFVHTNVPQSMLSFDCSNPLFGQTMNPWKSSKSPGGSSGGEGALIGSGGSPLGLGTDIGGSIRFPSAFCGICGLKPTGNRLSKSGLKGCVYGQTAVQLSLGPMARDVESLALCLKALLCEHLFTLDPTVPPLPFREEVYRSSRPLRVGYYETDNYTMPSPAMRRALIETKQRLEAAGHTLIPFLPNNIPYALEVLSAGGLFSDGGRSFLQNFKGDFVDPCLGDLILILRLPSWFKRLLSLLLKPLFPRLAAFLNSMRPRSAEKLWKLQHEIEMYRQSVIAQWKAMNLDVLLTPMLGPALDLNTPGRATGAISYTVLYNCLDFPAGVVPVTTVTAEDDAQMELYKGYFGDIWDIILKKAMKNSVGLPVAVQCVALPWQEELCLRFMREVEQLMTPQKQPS
UniProt Q16602, sequence (whole entry, looked up): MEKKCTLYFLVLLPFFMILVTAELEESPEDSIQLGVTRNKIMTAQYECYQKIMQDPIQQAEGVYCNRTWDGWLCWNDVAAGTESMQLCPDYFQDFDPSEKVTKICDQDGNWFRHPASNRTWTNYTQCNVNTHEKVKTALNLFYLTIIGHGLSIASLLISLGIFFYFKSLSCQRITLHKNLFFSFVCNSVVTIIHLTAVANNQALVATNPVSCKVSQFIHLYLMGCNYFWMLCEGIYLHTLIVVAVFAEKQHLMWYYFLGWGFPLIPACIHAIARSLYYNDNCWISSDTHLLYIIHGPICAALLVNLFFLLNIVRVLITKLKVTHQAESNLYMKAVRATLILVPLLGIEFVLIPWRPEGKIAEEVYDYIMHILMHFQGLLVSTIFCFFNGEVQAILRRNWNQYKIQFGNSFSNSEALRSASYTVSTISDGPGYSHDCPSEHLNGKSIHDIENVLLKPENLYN
UniProt Q06187, sequence (whole entry, looked up): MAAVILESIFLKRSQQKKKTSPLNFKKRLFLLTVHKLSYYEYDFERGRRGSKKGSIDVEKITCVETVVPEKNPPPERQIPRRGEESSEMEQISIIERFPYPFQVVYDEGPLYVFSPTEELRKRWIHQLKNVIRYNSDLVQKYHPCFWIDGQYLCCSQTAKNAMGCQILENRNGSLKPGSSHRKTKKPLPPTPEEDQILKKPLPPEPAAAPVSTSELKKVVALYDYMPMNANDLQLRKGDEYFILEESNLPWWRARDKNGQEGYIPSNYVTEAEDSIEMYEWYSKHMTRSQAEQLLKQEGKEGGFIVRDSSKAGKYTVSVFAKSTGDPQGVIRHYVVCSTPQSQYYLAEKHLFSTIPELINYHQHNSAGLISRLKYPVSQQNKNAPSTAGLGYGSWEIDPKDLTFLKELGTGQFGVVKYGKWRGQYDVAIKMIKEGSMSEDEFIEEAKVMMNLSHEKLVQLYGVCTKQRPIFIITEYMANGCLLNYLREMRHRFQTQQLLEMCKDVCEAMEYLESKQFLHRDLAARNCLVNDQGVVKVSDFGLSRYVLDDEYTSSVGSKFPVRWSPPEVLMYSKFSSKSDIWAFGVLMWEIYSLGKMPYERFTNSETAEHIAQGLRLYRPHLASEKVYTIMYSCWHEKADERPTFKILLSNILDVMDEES
UniProt P28074, sequence (whole entry, looked up): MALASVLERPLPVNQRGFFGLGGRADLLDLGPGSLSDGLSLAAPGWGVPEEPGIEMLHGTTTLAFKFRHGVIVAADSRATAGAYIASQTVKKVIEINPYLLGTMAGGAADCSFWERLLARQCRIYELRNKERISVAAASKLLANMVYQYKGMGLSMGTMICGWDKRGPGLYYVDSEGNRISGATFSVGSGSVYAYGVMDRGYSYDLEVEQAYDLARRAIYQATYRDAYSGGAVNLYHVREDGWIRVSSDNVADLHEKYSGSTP

CC12CCC(CC1)C(C)(C)O2  product formation rate (1,8-cineole 2-endo-monooxygenase (cinA, Citrobacter braakii, UniProt Q8VQF6, Y81F); substrate, GC-MS; 0 to 2 min, Y81F enzyme variant): 178 ± 15.8 min⁻¹
CO[C@H]1C[C@@H]2CC[C@@H](C)[C@@](O)(O2)C(=O)C(=O)N2CCCC[C@H]2C(=O)O[C@H]([C@H](C)C[C@@H]2CC[C@@H](OC(=O)NCCOCCOCCOCCOCCOCCOCCOCCOCCC(=O)N3CCc4cc(Cn5nc(-c6ccc7oc(N)nc7c6)c6c(N)ncnc65)ccc4C3)[C@H](OC)C2)C[C@@H](O)[C@H](C)/C=C(\C)[C@@H](O)[C@@H](OC)C(=O)[C@H](C)C[C@H](C)/C=C/C=C/C=C/1C  dose-reducing adverse events (phase 1 dose escalation, refers to: fatigue; advanced solid tumour patients; intravenous, 16 mg weekly, any grade): 25%
COc1cc2c(Oc3ccc4[nH]c(C)cc4c3F)ccnc2cc1OCC1(N)CC1  grade 3 Hematochezia (paediatric recurrent refractory sarcoma; 10 mg): 0%
C[C@@H](NC(=O)[C@@H](N)Cc1ccc(O)cc1)C(=O)NCC(=O)N(C)[C@@H](Cc1ccccc1)C(=O)NCCO  GTPγS binding (Oprm1 (Mus musculus, UniProt P42866); agonist; mouse spinal cord membranes; 5.62 µM; reference: basal binding): 2.4% and 1.85% and 8.37% and 3.3%
CN(C(=O)n1cnc(-c2ccc[n+]([O-])c2)c1)C1CCCCC1  inhibition (CALCRL (Homo sapiens, UniProt Q16602); radioligand binding; 50 µM): -8%
Clc1ccc(COc2ccccc2CNCc2cccnc2)cc1  highest concentration without inhibition (Aminoglycoside N(3)-acetyltransferase IV (aacC4, Salmonella sp, UniProt P08988); neomycin acetylation, inhibitor; together with: neomycin): > 200 µM
Nc1nc(COC(=O)[C@@H]2CS[C@H]3CS[C@H](CS)N32)cs1  activity (sfhI (Serratia fonticola, UniProt Q9RMI1); activity class; concentration not given): inactive
CCN(CC)CCCC[C@H](NC(=O)[C@H](CC(C)C)NC(=O)[C@H](C)NC(=O)[C@H](Cc1ccccc1)NC(=O)c1ccc(C(C)(C)C)cc1)C(=O)N[C@@H](CO)C(=O)OC  specific binding (CCR1 (Homo sapiens, UniProt P32246); radioligand binding; 10 µM): 93.4%
C[C@H]1CN(c2n[nH]c3nc(N[C@H]4CC[C@H](NS(=O)(=O)CCC(F)(F)F)CC4)ncc23)CCO1  remaining binding (Nuclear cap-binding protein subunit 1 (Homo sapiens, UniProt Q09161); Kinobeads competition, refers to: NCBP1; 20 µM, unit not given; reference: vehicle): 1.26
CC[C@H](C)[C@H](NC(=O)[C@H](Cc1ccccc1)NC(=O)[C@H](CCC(=O)O)NC(=O)[C@H](CCCNC(=N)N)NC(=O)[C@H](C)NC(=O)[C@H](C)NC(=O)[C@H](CCC(N)=O)NC(=O)[C@H](CCC(=O)O)NC(=O)[C@H](CCC(=O)O)NC(=O)[C@H](CC(C)C)NC(=O)[C@H](Cc1ccc(O)cc1)NC(=O)[C@H](CO)NC(=O)[C@H](CO)NC(=O)[C@@H](NC(=O)[C@H](CC(=O)O)NC(=O)[C@H](CO)NC(=O)[C@@H](NC(=O)[C@H](Cc1ccccc1)NC(=O)[C@@H](NC(=O)CNC(=O)[C@H](CCC(=O)O)NC(=O)[C@H](C)NC(=O)CCc1c[nH]cn1)[C@@H](C)O)[C@@H](C)O)C(C)C)C(=O)N[C@@H](C)C(=O)N[C@@H](Cc1c[nH]c2ccccc12)C(=O)N[C@@H](CC(C)C)C(=O)N[C@H](C(=O)N[C@@H](CCCNC(=N)N)C(=O)NCC(=O)N[C@@H](CCCNC(=N)N)C(=O)N[C@@H](CCCCNC(=O)COCCOCCNC(=O)COCCOCCNC(=O)CC[C@H](NC(=O)CCCCCCCCCCCCCCCCC(=O)O)C(=O)O)C(=O)NCC(=O)NCC(=O)N[C@@H](CO)C(=O)N[C@@H](CCCCNc1c(NCCCCCN(O)C(=O)CCC(=O)NCCCCCN(O)C(=O)CCC(=O)NCCCCCN(O)C(C)=O)c(=O)c1=O)C(=O)O)C(C)C [zirconium-89 labelled]  tissue uptake (gamma counting; rat, skin at injection site; intravenous, 3 nmol/kg, 4 h): 0.25 %ID/g
CCCCCCCC[C@H]1O[C@H]1C/C=C/C=C/[C@H](O)CC(=O)NC1=C[C@](C)(CC)OC1=O  −TΔS (Na(+)-translocating NADH-quinone reductase subunit B, whole Na+-NQR complex (nqrB, Vibrio cholerae serotype O1, UniProt Q9KPS2); isothermal titration calorimetry; 20 °C, 50 µM): 15 kcal/mol
COc1cc(N)c(Cl)cc1C(=O)NC1CN2CCC1CC2 (stereo not drawn)  log2 fold change (Probable G-protein coupled receptor 153 (GPR153, Homo sapiens, UniProt Q6NV75); β-arrestin recruitment, TANGO luminescence, refers to: GPR153; concentration not given; reference: basal luminescence): 0.227
O=C(CCl)c1ccc(O)cc1O  labelling (UCHL1 (Homo sapiens, UniProt P09936); covalent, intact protein LC-MS; 12.5 µM): 23.8%
C[N+]1(C)CCN(c2ccc(Cl)cc2)CC1.[I-]  ACh response (Nicotinic acetylcholine receptor alpha1/beta1/epsilon/delta (Mus musculus, UniProt P02716+P04756+P09690+P20782); ion current, inhibitor, two-electrode voltage clamp; Xenopus oocytes; 30 µM, after co-application, unit not given, together with: ACh 30 µM; reference: ACh alone): 0.664 ± 0.204
COc1ccc(N2C(=O)N(c3c(C)cccc3Cl)Cc3cnc(Nc4ccc(C5CCN(C)CC5)cc4OC)nc32)nc1  inhibition (TSSK1B (Homo sapiens, UniProt Q9BXA7); kinase activity, inhibitor; 0.5 µM, TSSK1): 87%
CCCCN1CCC(COC(=O)c2ccc(N)c(O[11CH3])c2)CC1  BPND (PET SRTM; rhesus monkey, midbrain; baseline, unit not given; reference: cerebellum): 0.23 ± 0.06
O=c1oc(-c2ccccc2)ns1  kobs/[I] (PSMB5 (Homo sapiens, UniProt P28074); enzyme inactivation, inhibitor; human PA28-activated proteasome): 31.3 M⁻¹ s⁻¹
COc1ccc(F)cc1C(=O)NCc1ccc(-c2nn([C@@H](C)C(F)(F)F)c(N)c2C(N)=O)cc1  residence time (Tyrosine-protein kinase BTK, non-phosphorylated (BTK, Homo sapiens, UniProt Q06187); binding): 105 min
CC[C@H](C)[C@H](NC(C)=O)C(=O)N[C@@H](CCC(=O)O)C(=O)N[C@H](C(=O)N[C@H](C=O)CC(=O)O)[C@@H](C)O  Hill slope (Caspase-2 (Homo sapiens, UniProt P42575)): -0.68
O=C(O)COP(=O)(O)O  Ki ratio (TPI1 (Saccharomyces cerevisiae, UniProt P00942, S211G); enzyme activity, competitive inhibitor, GPDH/NADH-coupled; pH 6.4, 25 °C, ionic strength 0.1 NaCl, together with: glyceraldehyde 3-phosphate substrate; reference: mutant over wild type): 2.8
C[C@@H](O)[C@@H](CO)NC(=O)[C@@H](CCCNC(=N)N)NC(=O)[C@@H]1CCCN1C(=O)[C@@H]1CSSC[C@H](NC(=O)[C@H](Cc2ccccc2)NC(=O)CN2CCN(CC(=O)O)CCN(CC(=O)O)CCN(CC(=O)O)CC2)C(=O)N[C@@H](Cc2ccc(O)cc2)C(=O)N[C@@H](Cc2ccccc2)C(=O)N[C@@H](CCC(N)=O)C(=O)N[C@@H](CC(N)=O)C(=O)N1 [gallium-68 labelled]  tissue uptake (Wistar rat, stomach; intravenous, 8 MBq, 60 min, group mean): 0.27 %ID/g
CC(C)C[C@@H]1NC(=O)[C@H](CC(C)C)NC(=O)[C@H](Cc2c[nH]c3ccccc23)NC(=O)[C@H](CO)NC(=O)[C@H](Cc2c[nH]c3ccccc23)NC(=O)[C@@H]2CCCN2C(=O)[C@H](CC(C)C)NC(=O)[C@H](Cc2c[nH]cn2)NC(=O)[C@@H]2CCCN2C(=O)[C@H](CC(N)=O)NC(=O)[C@H](C)NC(=O)[C@H](Cc2ccc(O)cc2)NC(=O)[C@H](CS)NC(=O)[C@H](CCCCNC(=O)CN2CCN(CC(=O)O)CCN(CC(=O)O)CCN(CC(=O)O)CC2)NC1=O [lutetium-177 labelled]  total nuclear transformations (OLINDA dosimetry; BALB/c mice, lung; 37 MBq, 7 days): 36.5 MBq-s
O=C(Nc1cnccc1Cl)N1CCN(Cc2ccc3c(c2)OC(F)(F)O3)CC1  inhibition (Faah (Rattus norvegicus, UniProt P97612); probe labelling, inhibitor, competitive ABPP with azido-FP probe; rat brain soluble fraction; 1 µM): 68.1%
CC[C@H](C)[C@H](NC(=O)CNC(=O)[C@@H](N)CCCCN)C(=O)N[C@@H](CC(C)C)C(=O)N[C@@H](CCCCN)C(=O)N[C@@H](CCCNC(=N)N)C(=O)N[C@@H](CCC(=O)O)C(=O)N[C@@H](CCCCN)C(=O)N[C@@H](CCCNC(=N)N)C(=O)N[C@@H](CC(C)C)C(=O)N[C@@H](CCCNC(=N)N)C(=O)N[C@@H](CCCNC(=N)N)C(=O)N[C@@H](CCCCN)C(=O)N[C@@H](CC(N)=O)C(=O)N[C@H](C(=O)N[C@@H](Cc1c[nH]cn1)C(=O)N[C@@H](Cc1c[nH]c2ccccc12)C(=O)N1CCC[C@H]1C(=O)N[C@@H](CCC(=O)O)C(=O)N[C@@H](CCC(=O)O)C(=O)NCC(=O)N[C@@H](CCCCN)C(=O)N[C@@H](CC(C)C)C(=O)N[C@@H](CCCNC(=N)N)C(=O)N[C@@H](CCC(=O)O)C(=O)N[C@@H](Cc1ccccc1)C(=O)N[C@@H](Cc1ccccc1)C(=O)N[C@@H](Cc1ccccc1)C(=O)N[C@@H](Cc1ccccc1)C(=O)N[C@@H](CCC(=O)O)C(=O)N[C@@H](CC(C)C)C(=O)N[C@@H](CC(=O)O)C(=O)N[C@@H](CCC(=O)O)C(=O)N[C@@H](C)C(=O)N[C@@H](CCC(=O)O)C(=O)N[C@@H](CCCNC(=N)N)C(=O)N[C@H](C(=O)N[C@@H](CC(N)=O)C(=O)N[C@H](C(=O)O)C(C)C)C(C)C)C(C)C  log2 fold change (HeLa and HEK-293T cells; phosphatase bead binding, competitive inhibitor, PIB pulldown iBAQ LC-MS/MS, refers to: MOB4; concentration not given; reference: untreated control): -0.41

Excerpt of the above:
C[N+]1(C)CCN(c2ccc(Cl)cc2)CC1.[I-]  ACh response (Nicotinic acetylcholine receptor alpha1/beta1/epsilon/delta (Mus musculus, UniProt P02716+P04756+P09690+P20782); ion current, inhibitor, two-electrode voltage clamp; Xenopus oocytes; 30 µM, after co-application, unit not given, together with: ACh 30 µM; reference: ACh alone): 0.664 ± 0.204
